Results pooled from the literature.
Each line is one published result; not all experiments were run side by side. ± marks the error that the study gave.
Oprk1: Kappa-type opioid receptor (Oprk1, Rattus norvegicus, UniProt P34975)
UniProt P34975, sequence (whole entry, looked up): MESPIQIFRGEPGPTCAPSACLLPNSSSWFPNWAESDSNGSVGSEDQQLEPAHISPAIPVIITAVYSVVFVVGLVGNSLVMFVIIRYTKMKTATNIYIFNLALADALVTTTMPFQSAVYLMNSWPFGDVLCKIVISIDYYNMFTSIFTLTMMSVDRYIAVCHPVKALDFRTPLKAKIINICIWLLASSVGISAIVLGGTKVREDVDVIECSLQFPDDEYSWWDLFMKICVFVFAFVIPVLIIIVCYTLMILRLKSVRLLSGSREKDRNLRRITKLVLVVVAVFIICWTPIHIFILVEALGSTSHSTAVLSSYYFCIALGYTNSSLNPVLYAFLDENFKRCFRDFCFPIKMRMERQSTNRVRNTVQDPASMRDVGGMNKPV
ampC: Beta-lactamase (ampC, Escherichia coli K-12, UniProt P00811)
UniProt P00811, sequence (whole entry, looked up): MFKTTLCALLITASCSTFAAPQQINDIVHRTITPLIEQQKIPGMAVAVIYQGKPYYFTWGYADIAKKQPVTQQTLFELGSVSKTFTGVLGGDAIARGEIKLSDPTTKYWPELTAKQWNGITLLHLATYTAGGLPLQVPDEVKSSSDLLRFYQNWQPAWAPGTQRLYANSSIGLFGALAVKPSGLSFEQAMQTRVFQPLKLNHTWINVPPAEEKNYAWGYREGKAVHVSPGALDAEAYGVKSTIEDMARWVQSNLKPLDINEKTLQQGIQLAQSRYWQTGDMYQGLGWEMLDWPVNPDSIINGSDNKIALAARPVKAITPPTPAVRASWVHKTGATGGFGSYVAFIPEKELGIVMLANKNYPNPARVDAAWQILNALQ
BACE1: Beta-secretase 1 (BACE1, Homo sapiens, UniProt P56817)
UniProt P56817, sequence (whole entry, looked up): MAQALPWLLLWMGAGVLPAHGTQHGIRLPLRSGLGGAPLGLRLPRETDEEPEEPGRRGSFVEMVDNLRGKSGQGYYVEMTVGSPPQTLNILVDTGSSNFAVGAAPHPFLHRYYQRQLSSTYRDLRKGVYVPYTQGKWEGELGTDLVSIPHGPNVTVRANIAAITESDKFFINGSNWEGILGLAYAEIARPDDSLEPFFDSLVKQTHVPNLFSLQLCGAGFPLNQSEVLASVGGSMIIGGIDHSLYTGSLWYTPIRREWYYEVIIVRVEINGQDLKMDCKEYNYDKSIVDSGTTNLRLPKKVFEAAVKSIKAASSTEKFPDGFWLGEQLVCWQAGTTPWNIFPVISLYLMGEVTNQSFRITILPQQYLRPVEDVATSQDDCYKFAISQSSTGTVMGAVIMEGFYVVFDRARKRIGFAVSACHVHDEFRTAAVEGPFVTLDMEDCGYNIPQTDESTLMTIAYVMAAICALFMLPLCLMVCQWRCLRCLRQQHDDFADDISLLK
UniProt Q62968, sequence (whole entry, looked up): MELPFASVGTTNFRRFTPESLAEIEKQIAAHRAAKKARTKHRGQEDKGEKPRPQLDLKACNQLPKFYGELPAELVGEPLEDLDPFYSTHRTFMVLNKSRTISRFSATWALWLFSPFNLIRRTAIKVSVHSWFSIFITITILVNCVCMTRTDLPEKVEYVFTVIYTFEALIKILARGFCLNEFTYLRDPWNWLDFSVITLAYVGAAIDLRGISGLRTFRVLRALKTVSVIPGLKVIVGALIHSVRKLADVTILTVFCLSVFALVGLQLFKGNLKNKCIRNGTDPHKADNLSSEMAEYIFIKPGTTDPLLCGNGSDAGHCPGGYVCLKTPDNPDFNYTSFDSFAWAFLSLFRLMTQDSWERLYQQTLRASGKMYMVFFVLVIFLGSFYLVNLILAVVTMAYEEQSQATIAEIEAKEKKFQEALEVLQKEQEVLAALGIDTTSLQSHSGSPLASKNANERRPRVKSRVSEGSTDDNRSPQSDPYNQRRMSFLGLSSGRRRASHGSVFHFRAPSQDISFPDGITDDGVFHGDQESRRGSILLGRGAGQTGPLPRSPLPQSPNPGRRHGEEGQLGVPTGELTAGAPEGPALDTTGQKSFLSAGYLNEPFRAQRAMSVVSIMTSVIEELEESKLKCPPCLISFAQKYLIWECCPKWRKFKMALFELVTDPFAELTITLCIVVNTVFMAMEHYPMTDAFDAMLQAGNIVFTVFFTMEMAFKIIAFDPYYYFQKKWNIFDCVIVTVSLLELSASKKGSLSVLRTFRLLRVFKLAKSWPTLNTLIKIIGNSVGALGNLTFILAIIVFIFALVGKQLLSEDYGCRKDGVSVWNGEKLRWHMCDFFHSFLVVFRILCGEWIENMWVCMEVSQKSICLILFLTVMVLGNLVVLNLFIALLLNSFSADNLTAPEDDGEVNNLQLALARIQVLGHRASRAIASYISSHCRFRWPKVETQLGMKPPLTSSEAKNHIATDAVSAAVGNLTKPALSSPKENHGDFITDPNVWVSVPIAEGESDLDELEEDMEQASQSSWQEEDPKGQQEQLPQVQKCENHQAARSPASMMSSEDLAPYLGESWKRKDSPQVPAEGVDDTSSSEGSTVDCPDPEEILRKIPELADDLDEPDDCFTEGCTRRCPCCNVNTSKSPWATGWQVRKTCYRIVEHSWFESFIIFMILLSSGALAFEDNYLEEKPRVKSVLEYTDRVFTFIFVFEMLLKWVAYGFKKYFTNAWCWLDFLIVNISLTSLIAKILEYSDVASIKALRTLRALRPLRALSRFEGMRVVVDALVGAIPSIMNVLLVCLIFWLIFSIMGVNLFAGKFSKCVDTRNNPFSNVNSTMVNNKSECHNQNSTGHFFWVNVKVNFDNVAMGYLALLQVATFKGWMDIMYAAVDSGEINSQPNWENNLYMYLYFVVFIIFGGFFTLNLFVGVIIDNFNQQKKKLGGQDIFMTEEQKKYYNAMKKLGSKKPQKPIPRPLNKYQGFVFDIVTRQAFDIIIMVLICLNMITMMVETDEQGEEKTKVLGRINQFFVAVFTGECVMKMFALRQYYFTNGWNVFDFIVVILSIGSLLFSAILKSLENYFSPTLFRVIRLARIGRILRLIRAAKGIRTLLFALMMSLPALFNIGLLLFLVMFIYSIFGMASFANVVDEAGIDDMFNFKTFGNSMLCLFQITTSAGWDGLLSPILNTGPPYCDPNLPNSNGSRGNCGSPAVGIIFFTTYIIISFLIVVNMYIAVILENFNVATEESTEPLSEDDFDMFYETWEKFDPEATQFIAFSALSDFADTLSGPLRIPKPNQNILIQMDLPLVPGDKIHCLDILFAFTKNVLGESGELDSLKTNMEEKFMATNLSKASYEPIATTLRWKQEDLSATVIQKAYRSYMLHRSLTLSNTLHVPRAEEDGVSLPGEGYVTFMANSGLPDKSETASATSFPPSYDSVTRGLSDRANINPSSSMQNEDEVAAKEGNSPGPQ
UniProt Q04828, sequence (whole entry, looked up): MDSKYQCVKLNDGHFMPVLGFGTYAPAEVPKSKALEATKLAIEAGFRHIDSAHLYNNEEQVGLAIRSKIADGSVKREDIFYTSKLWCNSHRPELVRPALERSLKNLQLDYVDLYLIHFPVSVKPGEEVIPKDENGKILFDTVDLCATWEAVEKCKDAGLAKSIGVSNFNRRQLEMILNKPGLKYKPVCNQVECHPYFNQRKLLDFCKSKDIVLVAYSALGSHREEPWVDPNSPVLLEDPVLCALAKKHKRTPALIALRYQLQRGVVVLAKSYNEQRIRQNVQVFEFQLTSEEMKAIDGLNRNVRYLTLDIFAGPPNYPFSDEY
UniProt P0C0V0, sequence (whole entry, unmodified, looked up): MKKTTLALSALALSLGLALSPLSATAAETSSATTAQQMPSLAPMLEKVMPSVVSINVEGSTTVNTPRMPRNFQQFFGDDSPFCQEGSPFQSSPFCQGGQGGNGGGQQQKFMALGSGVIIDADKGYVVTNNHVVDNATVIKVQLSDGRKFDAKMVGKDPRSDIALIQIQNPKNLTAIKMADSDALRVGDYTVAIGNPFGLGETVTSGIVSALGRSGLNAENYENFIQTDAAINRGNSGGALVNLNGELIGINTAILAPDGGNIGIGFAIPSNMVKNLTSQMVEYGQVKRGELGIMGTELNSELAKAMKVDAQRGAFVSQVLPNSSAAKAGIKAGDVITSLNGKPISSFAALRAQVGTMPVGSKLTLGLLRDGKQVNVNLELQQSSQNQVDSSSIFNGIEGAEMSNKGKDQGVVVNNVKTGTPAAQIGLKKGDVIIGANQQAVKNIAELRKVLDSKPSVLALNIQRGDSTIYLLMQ
UniProt O42275, sequence (whole entry, looked up): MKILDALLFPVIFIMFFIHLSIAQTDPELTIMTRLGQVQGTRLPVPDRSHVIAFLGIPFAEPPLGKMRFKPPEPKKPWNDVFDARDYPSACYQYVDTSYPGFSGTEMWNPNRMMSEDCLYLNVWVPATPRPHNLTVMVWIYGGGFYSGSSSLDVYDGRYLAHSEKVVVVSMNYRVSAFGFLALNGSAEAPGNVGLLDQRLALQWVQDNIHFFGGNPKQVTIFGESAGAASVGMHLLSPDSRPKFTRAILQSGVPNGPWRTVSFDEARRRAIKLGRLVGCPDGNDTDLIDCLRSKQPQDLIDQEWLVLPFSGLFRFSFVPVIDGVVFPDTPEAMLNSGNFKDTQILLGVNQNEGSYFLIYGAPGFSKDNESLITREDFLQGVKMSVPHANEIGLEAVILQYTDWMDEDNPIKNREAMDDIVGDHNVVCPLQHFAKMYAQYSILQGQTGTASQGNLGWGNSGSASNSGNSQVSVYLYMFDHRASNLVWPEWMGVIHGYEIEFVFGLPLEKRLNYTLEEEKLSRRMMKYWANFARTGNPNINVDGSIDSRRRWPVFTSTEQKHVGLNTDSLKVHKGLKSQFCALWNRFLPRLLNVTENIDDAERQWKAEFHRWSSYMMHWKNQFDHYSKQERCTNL
UniProt P61981, sequence (whole entry, looked up): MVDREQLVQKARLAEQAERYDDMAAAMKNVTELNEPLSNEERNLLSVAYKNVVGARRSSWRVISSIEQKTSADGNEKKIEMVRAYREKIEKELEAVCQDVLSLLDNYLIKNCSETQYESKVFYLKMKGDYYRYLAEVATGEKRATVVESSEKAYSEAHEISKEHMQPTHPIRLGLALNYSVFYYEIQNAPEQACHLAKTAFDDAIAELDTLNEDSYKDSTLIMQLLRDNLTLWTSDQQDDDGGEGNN

For `N=C(N)NCCC[C@@H]1NC(=O)[C@@H](NC(=O)[C@H](Cc2ccccc2)NC(=O)CNC(=O)CNC(=O)[C@H](Cc2ccc(O)cc2)NCc2ccccc2)CC(=O)NC[C@@H](C(=O)N[C@@H](CCCNC(=N)N)C(=O)N2CCC[C@H]2C(=O)N[C@@H](CCCCN)C(N)=O)NC(=O)[C@H](CCCNC(=N)N)NC1=O`, the relative affinity was 0.23 (Oprk1; binding; relative to: zyklophin).
`Fc1ccc(Nc2c3c(nc4ccccc24)CCCC3)cc1` has an inhibition of 39% (ache (Electrophorus electricus, UniProt O42275); enzyme activity, inhibitor, Ellman; 50 µM).
With `OB(O)c1cnn(-c2cc(Cl)ncn2)c1` the ligand efficiency was 0.71 (ampC).
The Stern-Volmer constant of `COc1ccc2cc1Oc1ccc(cc1)C[C@H]1c3cc(c(OC)cc3CC[N@+]1(C)Cc1ccc3c(c1)C(=O)c1ccccc1C3=O)Oc1c(OC)c(OC)cc3c1[C@H](C2)[N@@+](C)(Cc1ccc2c(c1)C(=O)c1ccccc1C2=O)CC3` is reported as 51700 M⁻¹ (poly(dA)·poly(dT) 18-bp dsDNA; DNA binding, ethidium bromide displacement; phosphate buffer, 10% DMSO; pH 7.2, 25 °C, dsDNA 10 µM, 10 mM NaCl, added: ethidium bromide 5 µM).
The Stern-Volmer constant of `CCOC(=O)C1=C(COCCN)NC(C)=C(C(=O)OC)C1c1ccccc1Cl` (stereo not drawn) is reported as 4700 M⁻¹ (srtA (Staphylococcus aureus, UniProt Q2FV99); binding, fluorescence quenching).
The ligand efficiency of `CCS(=O)(=O)Nc1ccccc1C(=O)O` is reported as 0.42 (ampC).
Under “adenylyl cyclase activity”, `COC(=O)N(C)[C@@H](Cc1ccccc1)C(=O)N[C@@H](Cc1ccccc1)C(=O)N[C@@H](Cc1ccccc1)C(=O)N[C@@H](CCCNC(=N)N)C(=O)N[C@@H](CC(C)C)C(=O)N[C@@H](CCCNC(=N)N)C(=O)N[C@@H](CCCNC(=N)N)C(=O)N[C@H](C)C(=O)N[C@@H](CCCNC(=N)N)C(=O)N1CCC[C@H]1C(=O)N[C@@H](CCCCN)C(N)=O` is recorded as 74 ± 13% (Oprk1; agonist; CHO cells; 10 µM; relative to: dynorphin A(1-13) amide).
`COC[C@H]1CC[C@@H]2/C1=C\[C@@]1(C)CCC(C(C)C)=C1[C@@H](O[C@H]1O[C@H](CO)[C@@H](O)[C@H](O)[C@H]1O)[C@H](O)[C@@H]2C`: complex stabilization “no effect” (14-3-3 protein gamma, with p53 (YWHAG, Homo sapiens, UniProt P61981); protein-peptide binding, fluorescence anisotropy and ITC).
For `CS(C)(=O)=Nc1ccc(-c2ccc(-c3nc4cc(O[C@@H]5CO[C@H]6[C@@H]5OC[C@H]6O)[nH]c4cc3F)cc2)cc1`, the EC150 was 0.404 nM (PRKAB2/PRKAA2, with gamma3 subunit (Homo sapiens, UniProt O43741+P54646); enzyme activity, activator; 60 min, 50% above basal activity, added: ATP 50 µM).
`C[C@@]12CC[C@@H]3c4ccc(O)c(Cl)c4CC[C@H]3[C@@H]1CCC2=O` gave an inhibition of 22.5% (AKR1C1 (Homo sapiens, UniProt Q04828); enzyme activity, inhibitor, absorbance; 100 µM, pH 9).
`C[C@@H](O)[C@H](NC(=O)[C@H]1NC(=O)[C@H]([C@@H](C)O)NC(=O)[C@H](CCCN)NC(=O)[C@@H](Cc2c[nH]c3ccccc23)NC(=O)[C@H](Cc2ccc(O)cc2)NC(=O)[C@@H](NC(=O)[C@H](N)Cc2ccccc2)CSSC1(C)C)C(N)=O` gave a Ki ratio of 0.06 (OPRM1 (Homo sapiens, UniProt P35372, C348A/C353A); relative to: OPRM1 over human MOR).
With `[2H]C([2H])(C)N1CCN(C2=Nc3cc(Cl)ccc3Nc3ccccc32)CC1` the Emax was 86% (CHRM3 (Homo sapiens, UniProt P20309, A239G/Y149C); calcium signal, agonist, FLIPR; relative to: clozapine N-oxide).
`CCCS(=O)(=O)Nc1ccccc1C(=O)O` gave a ligand efficiency of 0.35 (ampC).
The inactivation V1/2 of `CCN(Cc1ccccc1)C(=O)CCc1nc(CN2CCN(C(=O)Cc3ccc(OC)c(OC)c3)CC2)no1` is reported as -62.4 ± 5.79 mV (Scn10a (Rattus norvegicus, UniProt Q62968); sodium current, whole-cell patch clamp; rat DRG neurons; 1 µM).
`CC(=O)N[C@@H](Cc1ccccc1)C(=O)N[C@@H](Cc1ccccc1)C(=O)N[C@@H](Cc1c[nH]c2ccccc12)C(=O)N[C@@H](CCCNC(=N)N)C(=O)N[C@@H](CC(C)C)C(=O)N[C@@H](CCCNC(=N)N)C(=O)N[C@@H](CCCNC(=N)N)C(=O)N[C@H](C)C(=O)N[C@@H](CCCNC(=N)N)C(=O)N1CCC[C@H]1C(=O)N[C@@H](CCCCN)C(N)=O` — result for “adenylyl cyclase activity”: 108 ± 5 % control (Oprk1; agonist; CHO; 10 µM).
`CC[C@H](C)[C@H](NC(=O)[C@H](CCC(N)=O)NC(=O)[C@H](CC(C)C)NC(=O)[C@@H](NC(=O)CNC(=O)[C@H](Cc1ccc(O)cc1)NC(=O)[C@H](CC(=O)O)NC(=O)[C@@H](NC(=O)[C@H](CO)NC(=O)CNC(=O)[C@H](CC(=O)O)NC(=O)[C@@H](NC(=O)[C@H](CC(N)=O)NC(=O)[C@H](CCCNC(=N)N)NC(=O)[C@H](CC(N)=O)NC(=O)[C@@H](NC(=O)[C@H](C)NC(=O)[C@H](CCC(N)=O)NC(=O)[C@@H](NC(=O)[C@H](CC(N)=O)NC(=O)[C@H](Cc1ccccc1)NC(=O)[C@H](CC(N)=O)NC(=O)[C@H](CO)NC(=O)[C@H](CCC(=O)O)NC(=O)[C@H](Cc1ccccc1)NC(=O)[C@H](CCCCN)NC(=O)[C@H](C)NC(=O)[C@H](C)NC(=O)[C@H](CO)NC(=O)[C@@H](NC(=O)[C@H](Cc1c[nH]c2ccccc12)NC(=O)[C@H](CC(N)=O)NC(=O)CNC(=O)[C@H](CC(C)C)NC(=O)[C@H](CO)NC(=O)[C@H](Cc1ccc(O)cc1)NC(=O)CNC(=O)[C@H](CCCNC(=N)N)NC(=O)[C@H](Cc1ccc(O)cc1)NC(=O)[C@H](CC(N)=O)NC(=O)[C@@H](N)CC(=O)O)C(C)C)[C@@H](C)O)[C@@H](C)O)[C@@H](C)O)[C@@H](C)O)[C@@H](C)CC)C(=O)O` gave a 30-mers fraction of 3% (Periplasmic serine endoprotease DegP (degP, Escherichia coli, UniProt P0C0V0, S236A); oligomer formation, sedimentation velocity; 30 µM, added: protein 20 µM).
`O=C(/C=C/c1ccc(Br)cc1)c1cc2ccccc2oc1=O` has a remaining activity of 75.6% (BACE1; enzyme activity, inhibitor, fluorescence; 10 µM).
For `CC(=O)N[C@H]1[C@@H](OC[C@H](NC(=O)CNC(=O)[C@@H]2CCCN2C(=O)[C@H](C)NC(=O)[C@@H]2CCCN2C(=O)[C@@H](N)CCCNC(=N)N)C(=O)N[C@H](C(=O)N[C@@H](C)C(=O)N2CCC[C@H]2C(=O)N2CCC[C@H]2C(=O)N[C@@H](C)C(=O)N[C@@H](Cc2c[nH]cn2)C(=O)NCC(=O)O)[C@@H](C)O[C@H]2O[C@H](CO)[C@H](O)[C@H](O)[C@H]2NC(C)=O)O[C@H](CO)[C@H](O)[C@@H]1O`, the ka increase was 1.4 fold (anti-MUC1 Fab 14 A wild type, murine; SPR; relative to: Glyco-S).
For `COC(=O)C1C(OC(c2ccc(Cl)cc2)c2ccc(Cl)cc2)CC2CCC1N2C` (single isomer, unassigned), Ki read “inactive” (ADRB2 (Homo sapiens, UniProt P07550); binding, radioligand displacement; inactive if below 75% at 10000 nM, added: [3H]CGP-12177).
The relative potency of `CC[C@H](C)[C@H](NC(=O)[C@H](Cc1ccccc1)NC(=O)[C@H](CCC(=O)O)NC(=O)[C@H](CCCCN)NC(=O)[C@H](C)NC(=O)[C@H](C)NC(=O)[C@H](CC(N)=O)NC(=O)CNC(=O)[C@H](CCC(=O)O)NC(=O)[C@H](CC(C)C)NC(=O)[C@H](Cc1ccc(O)cc1)NC(=O)[C@H](CO)NC(=O)[C@H](CO)NC(=O)[C@@H](NC(=O)[C@H](CC(=O)O)NC(=O)[C@H](CO)NC(=O)[C@@H](NC(=O)[C@H](Cc1ccccc1)NC(=O)[C@H](CCC(N)=O)NC(=O)CNC(=O)[C@H](CCC(=O)O)NC(=O)[C@H](C)NC(=O)[C@@H](N)Cc1c[nH]cn1)[C@@H](C)O)C(C)C)C(=O)N[C@@H](C)C(=O)N[C@@H](Cc1c[nH]c2ccccc12)C(=O)N[C@@H](CC(C)C)C(=O)N[C@H](C(=O)N[C@@H](CCCCN)C(=O)NCC(=O)N[C@@H](CCCNC(=N)N)C(N)=O)C(C)C` is reported as 0.014 (Glucagon-like peptide 1 receptor (Rattus norvegicus, UniProt P32301); cAMP production, agonist; RIN-m5F cell membranes; relative to: GLP-1(7-36) amide over analogue EC50).
`CCCCCCCCCCCCCCCc1ccc(C(F)P(=O)(O)O)cc1` (racemic) gave a Ki′ of 5.54 µM (Autotaxin (ENPP2, Homo sapiens, UniProt Q13822); enzyme substrate complex).
`CC(C)P(=S)(NP(=S)(C(C)C)C(C)C)C(C)C` — result for “energy transfer efficiency”: 25.5% (Alpha-amylase (Bacillus subtilis, UniProt P00691); binding, FRET; 298 K).
`O=C(O)/C=C/c1ccc(O)cc1` has an inhibition of 86.8 ± 1.8% (alpha-amylase; enzyme activity, DNS; 1000 µg/mL).
For `O=C(/C=C/c1ccc([N+](=O)[O-])cc1)c1ccc(N2CCNCC2)cc1`, the remaining activity was 90% (BACE1; enzyme activity, inhibitor, fluorescence; 10 µM).

Excerpt of the above:
`CC(C)P(=S)(NP(=S)(C(C)C)C(C)C)C(C)C` — result for “energy transfer efficiency”: 25.5% (Alpha-amylase (Bacillus subtilis, UniProt P00691); binding, FRET; 298 K).
`O=C(O)/C=C/c1ccc(O)cc1` has an inhibition of 86.8 ± 1.8% (alpha-amylase; enzyme activity, DNS; 1000 µg/mL).
For `O=C(/C=C/c1ccc([N+](=O)[O-])cc1)c1ccc(N2CCNCC2)cc1`, the remaining activity was 90% (BACE1; enzyme activity, inhibitor, fluorescence; 10 µM).
